Experimental data gathered from unrelated publications.
Lines come from different studies, so protocols differ. Numbers after ± are the reported error.

CC1(C(=O)O)CCC2(C)CCC3(C)C(=CC(=O)C4C5(C)CCC(OC6OC(C(=O)NC(CCCCNC(=O)OCc7ccccc7)C(=O)O)C(O)C(O)C6OC6OC(C(=O)NC(CCCCNC(=O)OCc7ccccc7)C(=O)O)C(O)C(O)C6O)C(C)(C)C5CCC43C)C2C1 (stereo not shown)  CC50 (Raji; cell growth or viability, MTT; 72 h): > 8000 µM
Nc1ccn([C@@H]2O[C@H](CO)[C@@H](O)[C@H]2F)c(=O)n1  CC50 (COLO 205; sulforhodamine B; 11 days, galactose medium): 47 µM
CCOC(=O)C(NC(=O)CN1C(=O)/C(=C/c2ccc3c(c2)OCO3)SC1=S)C(C)C (stereo not shown)  CC50 (PMA-differentiated THP-1, Leishmania-infected; resazurin; 72 h): > 100 µM
CC(C)CC(NC(=O)C1OC(OC2C(OC3CCC4(C)C(CCC5(C)C4C(=O)C=C4C6CC(C)(C(=O)NC(CC(C)C)C(=O)O)CCC6(C)CCC45C)C3(C)C)OC(C(=O)NC(CC(C)C)C(=O)O)C(O)C2O)C(O)C(O)C1O)C(=O)O (stereo not shown)  CC50 (Raji; cell growth or viability, MTT; 72 h): 5000 µM
CCOC(=O)CNC(=O)CN1C(=O)S/C(=C\c2ccc(OC)c(O)c2)C1=O  CC50 (PMA-differentiated THP-1, Leishmania-infected; resazurin; 72 h): > 100 µM
COC(=O)C1NC(c2ccc[n+](C)c2)C23c4c5c6c7c8c9c(c%10c%11c2c2c4c4c%12c5c5c6c6c8c8c%13c9c9c%10c%10c%11c%11c2c2c4c4c%12c%12c5c5c6c8c6c8c%13c9c9c%10c%10c%11c2c2c4c4c%12c5c6c5c8c9c%10c2c45)C713 (stereo not shown)  CC50 (Ramos; cell growth or viability; 24 h): > 25 µM
CCc1c(CC2CCCCC2)nc(SCC(=O)c2ccccc2)[nH]c1=O  CC50 (C8166; MTT; 3 days): > 200 µM
COC(=O)C(C)NC(=O)C1OC(OC2C(OC3CCC4(C)C(CCC5(C)C4C(=O)C=C4C6CC(C)(C(=O)O)CCC6(C)CCC45C)C3(C)C)OC(C(=O)NC(C)C(=O)OC)C(O)C2O)C(O)C(O)C1O (stereo not shown)  CC50 (Raji; cell growth or viability, MTT; 72 h): 2000 µM
CC(C)CC(C)N1CCn2cc(C(=O)NCc3ccc(F)cc3F)c(=O)c(O)c2C1=O (stereo not shown)  CC50 (HOS; cell growth or viability; 48 h): > 250 µM
OC[C@H]1O[C@@H](n2cnc3c(O)ncnc32)[C@H](F)[C@@H]1O  CC50 (COLO 205; sulforhodamine B; 11 days, glucose medium): 114 µM
CCOC(=O)C1NC(c2ccc[n+](C)c2)C23c4c5c6c7c8c9c(c%10c%11c2c2c4c4c%12c5c5c6c6c8c8c%13c9c9c%10c%10c%11c%11c2c2c4c4c%12c%12c5c5c6c8c6c8c%13c9c9c%10c%10c%11c2c2c4c4c%12c5c6c5c8c9c%10c2c45)C713 (stereo not shown)  CC50 (Raji; cell growth or viability; 24 h): > 50 µM
CCN(Cc1cccc(S(=O)(=O)O)c1)c1ccc(C(=C2C=CC(=[N+](CC)Cc3cccc(S(=O)(=O)[O-])c3)C=C2)c2ccccc2)cc1  CC50 (CEMx174 5.25M7; 3 days): 259 ± 44.2 µM
OC[C@H]1[C@@H](O)[C@@H](O)CN1CCc1ccccc1  CC50 (MRC-5; MTS; 72 h): > 200 µM
O=S(=O)(O)CCCCCCCCCCCSC[C@H]1O[C@@H]2O[C@H]3[C@H](O)[C@@H](O)[C@@H](O[C@H]4[C@H](O)[C@@H](O)[C@@H](O[C@H]5[C@H](O)[C@@H](O)[C@@H](O[C@H]6[C@H](O)[C@@H](O)[C@@H](O[C@H]7[C@H](O)[C@@H](O)[C@@H](O[C@H]8[C@H](O)[C@@H](O)[C@@H](O[C@H]1[C@H](O)[C@H]2O)O[C@@H]8CSCCCCCCCCCCCS(=O)(=O)O)O[C@@H]7CSCCCCCCCCCCCS(=O)(=O)O)O[C@@H]6CSCCCCCCCCCCCS(=O)(=O)O)O[C@@H]5CSCCCCCCCCCCCS(=O)(=O)O)O[C@@H]4CSCCCCCCCCCCCS(=O)(=O)O)O[C@@H]3CSCCCCCCCCCCCS(=O)(=O)O  CC50 (African green monkey cells; MTS; 24 (unit not given)): > 300 µg/mL
O=c1ccn([C@@H]2O[C@H](CO)[C@@H](O)[C@H]2F)c(=O)[nH]1  CC50 (COLO 205; sulforhodamine B; 11 days, glucose medium): > 250 µM
COCC(C)N1CCn2cc(C(=O)NCc3ccc(F)cc3F)c(=O)c(O)c2C1=O (stereo not shown)  CC50 (HOS; cell growth or viability; 48 h): > 250 µM
Nc1ncnc2c1ncn2[C@@H]1O[C@H](CO)[C@@H](O)[C@H]1F  CC50 (COLO 205; sulforhodamine B; 11 days, galactose medium): 107 µM
O=C1c2ccc(O)c(O)c2C(=O)N1Cc1ccc(F)c(Cl)c1  CC50 (HOS; ATPlite; 48 h): 5.4 ± 1.3 µM
COC(=O)C(CCSC)NC(=O)C1OC(OC2C(OC3CCC4(C)C(CCC5(C)C4C(=O)C=C4C6CC(C)(C(=O)O)CCC6(C)CCC45C)C3(C)C)OC(C(=O)NC(CCSC)C(=O)OC)C(O)C2O)C(O)C(O)C1O (stereo not shown)  CC50 (Raji; cell growth or viability, MTT; 72 h): > 8000 µM

For quick reference, copied from above:
CC(C)CC(NC(=O)C1OC(OC2C(OC3CCC4(C)C(CCC5(C)C4C(=O)C=C4C6CC(C)(C(=O)NC(CC(C)C)C(=O)O)CCC6(C)CCC45C)C3(C)C)OC(C(=O)NC(CC(C)C)C(=O)O)C(O)C2O)C(O)C(O)C1O)C(=O)O (stereo not shown)  CC50 (Raji; cell growth or viability, MTT; 72 h): 5000 µM
CCOC(=O)C1NC(c2ccc[n+](C)c2)C23c4c5c6c7c8c9c(c%10c%11c2c2c4c4c%12c5c5c6c6c8c8c%13c9c9c%10c%10c%11c%11c2c2c4c4c%12c%12c5c5c6c8c6c8c%13c9c9c%10c%10c%11c2c2c4c4c%12c5c6c5c8c9c%10c2c45)C713 (stereo not shown)  CC50 (Raji; cell growth or viability; 24 h): > 50 µM
OC[C@H]1[C@@H](O)[C@@H](O)CN1CCc1ccccc1  CC50 (MRC-5; MTS; 72 h): > 200 µM
